Published values pooled from the literature.
Lines come from different studies, so protocols differ. Numbers after ± are the reported error.
Organism: Plasmodium falciparum

CC1(C)N=C(N)N=C(N)N1c1ccc(Cl)cc1  IC50 (parasite growth; erythrocytes, 3D7; low-folate medium): 4.36 ± 0.24 nM
CCC1=C(C)/C(=C/NC23C[C@H]4C[C@@H](C2)C[C@@H](C3)C4)N=C1c1ccc(CC)[nH]1  IC50 (parasite growth, SYBR Green I fluorescence; D6, chloroquine-sensitive; 72 h): < 1 nM
CCc1nc(N)nc(N)c1-c1ccc(Cl)cc1  IC50 (cell growth; erythrocytes, HB3; low-folate medium): 1060 ± 650 nM
Cc1[nH]c(/C=C2\N=C(c3ccc[nH]3)C=C2OCc2ccccc2)cc1Cc1ccc(Cl)cc1  IC50 (parasite growth, SYBR Green fluorescence; Tm90-C2B (atovaquone-resistant), asexual blood stage; 72 h): 11.8 nM
COc1ncnc(NS(=O)(=O)c2ccc(N)cc2)c1OC  IC50 (cell growth; erythrocytes, K1; low-folate medium): 494000 ± 47000 nM
Cc1onc(-c2ccccc2)c1-c1ccc(S(N)(=O)=O)cc1  IC50 (parasite growth, inhibitor, SYBR Green I; 3D7): 64000 nM
N=C(CC(O)c1nc2ccccc2c2ccc(Cl)cc12)Nc1ccc(F)cc1 (stereo not shown)  IC50 (parasite growth, HRP2 ELISA; clinical isolates from Gabon; ex vivo, range over isolates): 0.2 to 111 nM
Cl.Oc1cccc2c1[nH]c1c(C3=CC4(O)CC/C=C\CCCCN5CCC3C3(CC6/C=C\CCCCN6C43)C5)nccc12 (single isomer, unassigned; (+))  IC50 (parasite LDH; D6, chloroquine-sensitive; 72 h): 0.027 ± 0.007 µg/mL
NC(N)=Nc1ccc(-c2ccc(-c3ccc(N=C(N)N)c(Cl)c3)o2)cc1Cl  IC50 (parasite growth, stage-specific treatment; 12 h, early to late schizont stage): 570 ± 300 nM
COc1cc(CO)c(-c2ccc3c(c2O)[C@@H](C)N[C@H](C)C3)c2cccc(O)c12  IC50 (asexual parasite growth, SYBR Green I; clinical isolate SB_04, Malawi): 2.5 ± 0.11 nM
Nc1ccc(S(=O)(=O)c2ccc(N)cc2)cc1  IC50 (cell growth; erythrocytes, Dd2; low-folate medium): 65200 ± 6070 nM
CCN(CC)CCCC(C)Nc1ccnc2cc(Cl)ccc12 (stereo not shown)  IC50 (asexual parasite proliferation, SYBR Green I fluorescence; Dd2): 63 ± 14 nM
C[C@@H]1CC[C@H]2[C@@H](C)C(=O)O[C@@H]3O[C@@]4(C)CC[C@@H]1[C@]32OO4  IC50 (parasite growth, [3H]hypoxanthine incorporation; K1; erythrocytic stages): 3.5 nM
N=C(N)NCCCCC(=O)Nc1cc(C(F)(F)F)cc(NC(=O)c2cc(C(=O)Nc3cc(C(F)(F)F)cc(NC(=O)CCCCNC(=N)N)c3O[C@@H]3CCNC3)ncn2)c1O[C@@H]1CCNC1  IC50 (parasite growth, inhibitor, SYBR Green I; 3D7): 453 nM
CCC1=C(CC)/C(=C/NC23CC4CC(CC(C4)C2)C3)N=C1c1cc2ccccc2[nH]1  IC50 (parasite growth, asexual blood stage; Tm90-C2B, atovaquone-resistant MDR isolate; 72 h, MSF): 410 nM
CCCCCCCCNC[C@H](O)c1cc(Cl)cc2c1-c1ccc(Cl)cc1C2  IC50 (3D7; 48 h): 0.7 ± 0.1 nM
O=C(O)/C=C/C=C/c1cccc(Oc2cc(Cl)cc(Cl)c2)c1  IC50 (parasite growth, inhibitor, SYBR Green I; 3D7): 37200 nM
CCCCNCC(O)c1cc(Cl)cc2c1-c1ccc(Cl)cc1C2 (racemic)  IC50 (3D7; 48 h): 4.7 ± 0.8 nM
CCC1=C(CC)/C(=C/c2[nH]c(Cc3ccc(Cl)cc3)cc2Cc2ccc(Cl)cc2)N=C1c1ccc[nH]1  IC50 (parasite growth, SYBR Green fluorescence; Tm90-C2B (atovaquone-resistant), asexual blood stage; 72 h): 153 nM
O[C@@H](CN1CCN(C(c2ccccc2)c2ccccc2)CC1)c1cc(Cl)cc2c1-c1ccc(Cl)cc1C2  IC50 (3D7; 48 h): 32.4 ± 10.1 nM
CC1(C)N=C(N)N=C(N)N1c1ccc(Cl)cc1  IC50 (growth; 3D7; 48 h): 38 ± 10 nM
CC(C)Cn1c(=O)n(C)c(=O)c2c(-c3cncn3C)n(Cc3cccc4ccccc34)nc21  IC50 (parasite growth, inhibitor, SYBR Green I; 3D7): 3110 nM
CC1=C(Cn2ccnc2[N+](=O)[O-])C(=O)c2ccccc2C1=O  IC50 (parasite growth, [3H]hypoxanthine incorporation; NF54; 72 h): > 10000 nM
COC1=CC(c2ccc[nH]2)=N/C1=C\c1[nH]c(Cc2ccc(OC(F)(F)F)cc2)cc1Cc1ccc(OC(F)(F)F)cc1  IC50 (parasite growth, SYBR Green fluorescence; Tm90-C2B (atovaquone-resistant), asexual blood stage; 72 h): 34.7 nM
O[C@@H](CN[C@@H](COCC1CC1)Cc1ccccc1)c1cc(Cl)cc2c1-c1ccc(Cl)cc1C2  IC50 (3D7; 48 h): 3.8 ± 0.2 nM
CC1=C(Cn2cc(CBr)nn2)C(=O)c2ccccc2C1=O  IC50 (parasite growth, [3H]hypoxanthine incorporation; NF54; 72 h): 5550 nM
O=C1C(O)=C([C@H]2CC[C@H](c3ccc(Cl)cc3)CC2)C(=O)c2ccccc21  IC50 (growth; 3D7; 96 h): 3 ± 3 nM
O[C@@H](CNCCN1CCN(C(c2ccccc2)c2ccccc2)CC1)c1cc(Cl)cc2c1-c1ccc(Cl)cc1C2  IC50 (3D7; 48 h): 14.2 ± 1.6 nM
CC1=C(C)/C(=C/c2[nH]c(Cc3ccc(Cl)cc3)cc2Cc2ccc(Cl)cc2)N=C1c1ccc[nH]1  IC50 (parasite growth, SYBR Green fluorescence; Dd2 (multidrug-resistant), asexual blood stage; 72 h): > 2500 nM
Oc1cccc(C(Nc2nccs2)c2ccc3cccnc3c2O)c1 (stereo not shown)  IC50 (parasite growth, inhibitor, SYBR Green I; 3D7): 388 nM
CCCCCCNC[C@@H](O)c1cc(Cl)cc2c1-c1ccc(Cl)cc1C2  IC50 (3D7; 48 h): 2.2 ± 0.2 nM
CC1=C(Cn2cc(CN3CCOCC3)nn2)C(=O)c2ccccc2C1=O  IC50 (parasite growth, [3H]hypoxanthine incorporation; NF54; 72 h): > 10000 nM
COc1cc(C)c(-c2ccc(O)c3c2C[C@@H](C)N[C@@H]3C)c2cccc(O)c12 (single isomer, unassigned)  IC50 (asexual parasite proliferation, SYBR Green I fluorescence; 7G8): 21.7 ± 5 nM
CN1CCC(NCc2cccc(-c3ccc(S(=O)(=O)NCc4ccccc4)cc3)c2)CC1  IC50 (parasite growth, inhibitor, SYBR Green I; 3D7): 400 nM
CC1Cc2c([nH]c3ccccc23)C2(N1)C(=O)Nc1ccc(Cl)cc12 (stereo not shown)  IC50 (parasite growth, [3H]hypoxanthine incorporation; NF54): 17 nM
O=C(CC1NCCCC1O)Cn1cnc2cc(Br)c(Cl)cc2c1=O (stereo not shown)  IC50 (parasite growth; cPRS conditional knockdown line; 72 h, added: 12.5 nM anhydrotetracycline): 0.07 nM
CCCCCCCNC[C@@H](O)c1cc(Cl)cc2c1-c1ccc(Cl)cc1C2  IC50 (3D7; 48 h): 1.5 ± 0.3 nM
CC1=C(Cc2cn(CC#N)nn2)C(=O)c2ccccc2C1=O  IC50 (parasite growth, [3H]hypoxanthine incorporation; NF54; 72 h): 1890 nM
CCC1=C(CC)/C(=C/c2cc(Cc3ccc(Cl)cc3)c(C)[nH]2)N=C1c1ccc[nH]1  IC50 (parasite growth, SYBR Green fluorescence; Tm90-C2B (atovaquone-resistant), asexual blood stage; 72 h): 253 nM
CC1=C(Cn2cc(CO)nn2)C(=O)c2ccccc2C1=O  IC50 (parasite growth, [3H]hypoxanthine incorporation; NF54; 72 h): > 10000 nM
Cc1[nH]c(/C=C2\N=C(c3ccc[nH]3)C3=C2OCCO3)cc1Cc1ccc(Cl)cc1  IC50 (parasite growth, SYBR Green fluorescence; Tm90-C2B (atovaquone-resistant), asexual blood stage; 72 h): 14.8 nM
CCOc1ccc(-c2nc(CNCCc3ccc(F)cc3)cs2)cc1  IC50 (parasite growth, inhibitor, SYBR Green I; 3D7): 20700 nM
CCC1=C(CC)/C(=C/c2[nH]c(Cc3ccc(OC(F)(F)F)cc3)cc2Cc2ccc(OC(F)(F)F)cc2)N=C1c1ccc[nH]1  IC50 (parasite growth, SYBR Green fluorescence; Tm90-C2B (atovaquone-resistant), asexual blood stage; 72 h): 1080 nM
C[C@H](O)C(=O)CCCCCCC(=O)Nc1cccc(-c2cn(-c3ccccc3)nn2)c1  IC50 ([3H]-hypoxanthine incorporation): 4850 nM
CC1=C(Cc2cn(CCN3CCNCC3)nn2)C(=O)c2ccccc2C1=O  IC50 (parasite growth, [3H]-hypoxanthine incorporation; NF54; 72 h): inactive
COC1=CC(c2ccc[nH]2)=N/C1=C\c1cc(Cc2ccc(OC(F)(F)F)cc2)c(C)[nH]1  IC50 (parasite growth, SYBR Green fluorescence; Dd2 (multidrug-resistant), asexual blood stage; 72 h): 3.15 nM
